Results pooled from the literature.
Lines come from different studies, so protocols differ.

Structure (SMILES) | assay | test system | setting | measurement | result
CNC(=O)c1cc(Oc2ccc(NC(=O)Nc3ccc(Cl)c(C(F)(F)F)c3)cc2)ccn1 |  | human | oral, dose not given | apparent oral clearance | 5.81 L/h
CNC(=O)c1cc(Oc2ccc(NC(=O)Nc3ccc(Cl)c(C(F)(F)F)c3)cc2)ccn1 | population PK model | human, AML patients | oral, dose not given, typical at 80 kg | apparent volume of distribution | 171 L
CCCCC1=NC2(CCCC2)C(=O)N1Cc1ccc(-c2ccccc2S(=O)(=O)Nc2noc(C)c2C)c(COCC)c1 |  | human, plasma | oral, 400 mg single, population PK model, reference subject | apparent clearance (CL/F) | 3.88 L/h
CC#CC(=O)N1CCC[C@H]1c1nc(-c2ccc(C(=O)Nc3ccccn3)cc2)c2c(N)nccn12 | population PK model | human | oral, dose not given | apparent central volume | 31 L
C=CC[C@@H]1/C=C(\C)C[C@H](C)C[C@H](OC)[C@H]2O[C@@](O)(C(=O)C(=O)N3CCCC[C@H]3C(=O)O[C@H](/C(C)=C/[C@@H]3CC[C@@H](O)[C@H](OC)C3)[C@H](C)[C@@H](O)CC1=O)[C@H](C)C[C@@H]2OC |  | healthy humans, whole blood | oral, 5 mg single dose | apparent oral clearance (CL/F) | 18.4 L/h
CC(C)NCC1CCc2cc(CO)c([N+](=O)[O-])cc2N1 (stereo not shown) |  | human patients, plasma | oral, 1000 mg | apparent oral clearance | 62 mL/min/kg
CCCOc1ccc([C@H]2CNC(=O)N2c2ccc3[nH]cnc3c2)cc1 |  | human volunteers fasted, plasma | oral solution, 10 mg single dose, day 1, geometric mean | apparent terminal half-life | 2.11 h
C=CC(=O)N1CCC([C@@H]2CCNc3c(C(N)=O)c(-c4ccc(Oc5ccccc5)cc4)nn32)CC1 |  | human | oral, 480 mg, single dose, mean | apparent volume of distribution | 1630 L
C[C@@H](Oc1cc(-c2cnn(C3CCNCC3)c2)cnc1N)c1c(Cl)ccc(F)c1Cl |  | healthy human | oral, 250 mg single, day 5, geometric mean, together with: esomeprazole 40 mg/day | apparent oral clearance | 118 L/h
CCN1CCN(Cc2ccc(Nc3ncc(F)c(-c4cc(F)c5nc(CO)n(C(C)C)c5c4)n3)nc2)CC1 |  | human patients | oral, 150 mg single, geometric mean | apparent hepatic clearance | 26 L/h
CCN(CC)CCNC(=O)c1c(C)[nH]c(/C=C2\C(=O)Nc3ccc(F)cc32)c1C |  | human, hepatocellular carcinoma | oral, 37.5 mg once daily | apparent clearance (CL/F) | 30.3 L/h
NC1(c2ccc(-c3nc4ccn5c(=O)[nH]nc5c4cc3-c3ccccc3)cc2)CCC1 |  | human, expansion, reduced dose | oral, 90 mg, together with: dinaciclib 9 mg/m2 | apparent volume of distribution | 3350 L
COc1cccc(-c2ccc(NC(=O)C3=C(C(=O)O)CCC3)c(F)c2)c1 |  | human, male, plasma | oral, 50 mg once daily, day 13, geometric mean, not pre-dosed | apparent volume Vz/F | 12.8 L
CC(C)NC[C@@H](C(=O)N1CCN(c2ncnc3c2[C@H](C)C[C@H]3O)CC1)c1ccc(Cl)cc1 |  | human, Severe hepatic function, plasma | oral, 100 mg single dose, NCI classification, geometric mean | apparent volume of distribution | 12300 L
O=C(NC[C@H](O)CO)c1ccncc1Nc1ccc(I)cc1F |  | human | oral, 45 mg, single dose with FOLFIRI | apparent volume of distribution | 276 L
COc1cc(NC(=O)CCN2CCC(OC(=O)Nc3ccccc3-c3ccccc3)CC2)c(Cl)cc1CNC[C@H](O)c1ccc(O)c2[nH]c(=O)ccc12 |  | human COPD patients, plasma | inhaled, 800 µg once daily or 400 µg twice daily, day 28, log population model estimate | apparent peripheral volume | 9.97 L
